Published values from different studies.
Parts stem from different laboratories: compare values within a part only.
Sequence of UniProt O75582 (whole entry, looked up): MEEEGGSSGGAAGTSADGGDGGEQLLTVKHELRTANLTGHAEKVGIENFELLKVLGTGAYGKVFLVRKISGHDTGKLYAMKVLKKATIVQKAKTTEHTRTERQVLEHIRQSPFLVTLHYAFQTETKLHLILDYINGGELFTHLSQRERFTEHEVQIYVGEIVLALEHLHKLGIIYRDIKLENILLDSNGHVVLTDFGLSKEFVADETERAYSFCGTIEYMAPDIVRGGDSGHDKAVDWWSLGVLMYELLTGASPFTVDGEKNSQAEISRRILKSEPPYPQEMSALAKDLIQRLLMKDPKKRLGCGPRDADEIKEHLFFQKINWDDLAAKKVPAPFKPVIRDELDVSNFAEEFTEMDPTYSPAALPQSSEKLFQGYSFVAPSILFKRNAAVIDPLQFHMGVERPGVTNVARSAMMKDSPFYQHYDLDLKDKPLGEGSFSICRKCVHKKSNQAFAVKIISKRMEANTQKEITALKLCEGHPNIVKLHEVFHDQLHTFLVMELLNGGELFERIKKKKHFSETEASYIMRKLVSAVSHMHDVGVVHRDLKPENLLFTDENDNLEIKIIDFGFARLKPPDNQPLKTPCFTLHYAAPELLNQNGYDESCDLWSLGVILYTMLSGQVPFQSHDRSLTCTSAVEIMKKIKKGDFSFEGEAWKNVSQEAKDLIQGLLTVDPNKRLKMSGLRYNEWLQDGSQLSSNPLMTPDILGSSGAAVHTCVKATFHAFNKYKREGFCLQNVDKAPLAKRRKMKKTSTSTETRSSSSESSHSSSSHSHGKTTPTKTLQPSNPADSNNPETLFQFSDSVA
Sequence of UniProt P00519 (whole entry, unmodified, looked up): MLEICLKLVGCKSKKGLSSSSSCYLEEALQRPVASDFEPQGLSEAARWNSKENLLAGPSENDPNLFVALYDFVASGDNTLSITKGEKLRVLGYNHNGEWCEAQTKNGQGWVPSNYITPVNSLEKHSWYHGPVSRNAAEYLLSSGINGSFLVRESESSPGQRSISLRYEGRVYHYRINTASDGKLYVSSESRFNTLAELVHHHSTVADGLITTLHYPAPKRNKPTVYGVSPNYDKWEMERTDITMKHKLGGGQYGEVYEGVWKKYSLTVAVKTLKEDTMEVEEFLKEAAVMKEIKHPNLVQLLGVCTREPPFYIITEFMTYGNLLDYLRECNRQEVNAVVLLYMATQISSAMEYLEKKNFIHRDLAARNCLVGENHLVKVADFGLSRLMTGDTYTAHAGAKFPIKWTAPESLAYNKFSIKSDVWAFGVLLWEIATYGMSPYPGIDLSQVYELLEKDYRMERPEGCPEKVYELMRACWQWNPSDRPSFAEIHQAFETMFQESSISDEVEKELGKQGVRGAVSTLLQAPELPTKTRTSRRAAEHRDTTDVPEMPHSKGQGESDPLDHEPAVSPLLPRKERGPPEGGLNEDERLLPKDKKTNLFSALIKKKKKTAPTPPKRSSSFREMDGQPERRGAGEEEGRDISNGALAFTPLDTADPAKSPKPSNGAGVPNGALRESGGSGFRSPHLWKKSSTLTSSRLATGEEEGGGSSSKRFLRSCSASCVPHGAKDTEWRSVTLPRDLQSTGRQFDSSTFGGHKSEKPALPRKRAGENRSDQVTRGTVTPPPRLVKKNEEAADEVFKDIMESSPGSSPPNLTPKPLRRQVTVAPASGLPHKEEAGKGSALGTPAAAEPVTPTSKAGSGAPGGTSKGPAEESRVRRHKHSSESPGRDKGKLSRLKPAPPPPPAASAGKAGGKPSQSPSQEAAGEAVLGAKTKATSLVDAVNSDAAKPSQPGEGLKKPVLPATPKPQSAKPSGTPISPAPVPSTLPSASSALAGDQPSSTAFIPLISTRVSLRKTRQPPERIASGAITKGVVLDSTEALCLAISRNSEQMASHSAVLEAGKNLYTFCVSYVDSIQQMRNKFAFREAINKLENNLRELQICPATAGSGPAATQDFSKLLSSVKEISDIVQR
Sequence of UniProt Q8NE63 (whole entry, looked up): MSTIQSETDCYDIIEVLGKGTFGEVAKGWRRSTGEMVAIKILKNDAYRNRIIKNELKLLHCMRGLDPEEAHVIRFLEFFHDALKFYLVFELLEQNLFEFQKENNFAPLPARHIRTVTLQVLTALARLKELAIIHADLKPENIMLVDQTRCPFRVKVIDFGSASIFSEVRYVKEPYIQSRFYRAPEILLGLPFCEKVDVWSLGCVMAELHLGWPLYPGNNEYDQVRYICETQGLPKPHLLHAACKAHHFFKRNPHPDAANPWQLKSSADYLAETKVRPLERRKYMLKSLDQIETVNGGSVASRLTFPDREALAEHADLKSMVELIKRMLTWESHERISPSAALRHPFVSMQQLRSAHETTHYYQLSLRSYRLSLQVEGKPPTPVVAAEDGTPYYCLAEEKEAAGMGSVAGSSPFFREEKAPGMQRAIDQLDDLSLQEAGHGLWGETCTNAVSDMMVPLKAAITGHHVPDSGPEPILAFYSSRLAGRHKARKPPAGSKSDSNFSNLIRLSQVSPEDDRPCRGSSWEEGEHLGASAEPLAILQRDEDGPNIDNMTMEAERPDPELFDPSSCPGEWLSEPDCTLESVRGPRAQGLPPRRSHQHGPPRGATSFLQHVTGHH
Sequence of UniProt Q96PF2 (whole entry, looked up): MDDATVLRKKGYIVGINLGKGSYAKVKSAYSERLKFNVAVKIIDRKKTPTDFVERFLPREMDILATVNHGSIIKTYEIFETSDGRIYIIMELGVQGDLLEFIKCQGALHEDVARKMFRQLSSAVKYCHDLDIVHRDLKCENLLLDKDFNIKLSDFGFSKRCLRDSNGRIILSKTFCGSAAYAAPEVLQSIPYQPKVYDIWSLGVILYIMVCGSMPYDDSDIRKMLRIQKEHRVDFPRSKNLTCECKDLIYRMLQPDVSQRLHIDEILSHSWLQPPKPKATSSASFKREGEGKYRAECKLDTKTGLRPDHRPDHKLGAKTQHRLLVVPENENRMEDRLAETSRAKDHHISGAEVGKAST
Sequence of UniProt P06493 (whole entry, looked up): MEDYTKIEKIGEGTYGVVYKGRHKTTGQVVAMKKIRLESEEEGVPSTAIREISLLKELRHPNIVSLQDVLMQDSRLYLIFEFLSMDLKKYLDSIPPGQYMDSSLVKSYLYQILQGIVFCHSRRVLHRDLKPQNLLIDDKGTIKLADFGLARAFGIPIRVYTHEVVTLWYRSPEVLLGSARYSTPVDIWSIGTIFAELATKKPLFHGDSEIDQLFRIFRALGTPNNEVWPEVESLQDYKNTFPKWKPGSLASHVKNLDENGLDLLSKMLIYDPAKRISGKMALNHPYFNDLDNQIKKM
Sequence of UniProt O94768 (whole entry, looked up): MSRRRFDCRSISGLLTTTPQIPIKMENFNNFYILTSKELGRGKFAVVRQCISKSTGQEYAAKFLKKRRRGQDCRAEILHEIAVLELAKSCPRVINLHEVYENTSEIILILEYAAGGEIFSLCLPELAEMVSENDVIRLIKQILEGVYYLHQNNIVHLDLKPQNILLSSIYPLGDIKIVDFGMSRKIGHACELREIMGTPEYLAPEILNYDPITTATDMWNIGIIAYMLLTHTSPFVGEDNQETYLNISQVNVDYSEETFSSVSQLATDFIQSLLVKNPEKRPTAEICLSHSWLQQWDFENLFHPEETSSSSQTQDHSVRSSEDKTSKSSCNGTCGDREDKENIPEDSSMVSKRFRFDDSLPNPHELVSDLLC

Series 1
Compound: CCCCN(CCCC)C(=O)CN1C[C@@H](c2cc(OC)c3c(c2)OCO3)[C@H](C(=O)O)[C@H]1CC(C)(C)CCC
Tested at: 1 µM
The remaining binding was 100% (ALK tyrosine kinase receptor (ALK, Homo sapiens, UniProt Q9UM73); cell-free assay, competition with immobilised ligand).
For Mitogen-activated protein kinase 15 (MAPK15, Homo sapiens, UniProt Q8TD08); cell-free assay, competition with immobilised ligand: remaining binding read 100%.
Megakaryocyte-associated tyrosine-protein kinase (MATK, Homo sapiens, UniProt P42679); cell-free assay, competition with immobilised ligand — remaining binding: 100%.
The remaining binding was 81.9% (Ephrin type-A receptor 5 (EPHA5, Homo sapiens, UniProt P54756); cell-free assay, competition with immobilised ligand).
The remaining binding was 100% (Tyrosine-protein kinase BTK (BTK, Homo sapiens, UniProt Q06187); cell-free assay, competition with immobilised ligand).
Bone morphogenetic protein receptor type-1B (BMPR1B, Homo sapiens, UniProt O00238); cell-free assay, competition with immobilised ligand — remaining binding: 100%.
The remaining binding was 98.1% (Serine/threonine-protein kinase Nek6 (NEK6, Homo sapiens, UniProt Q9HC98); cell-free assay, competition with immobilised ligand).
It gave 99.3% for remaining binding (Serine/threonine-protein kinase PRP4 homolog (PRPF4B, Homo sapiens, UniProt Q13523); cell-free assay, competition with immobilised ligand).
For Serine/threonine-protein kinase 17B (STK17B, Homo sapiens, UniProt O94768); cell-free assay, competition with immobilised ligand: remaining binding read 100%.
Proto-oncogene tyrosine-protein kinase receptor Ret (RET, Homo sapiens, UniProt P07949, M918T); cell-free assay, competition with immobilised ligand — remaining binding: 100%.
Epidermal growth factor receptor (EGFR, Homo sapiens, UniProt P00533, L858R); cell-free assay, competition with immobilised ligand — remaining binding: 100%.
It gave 94.3% for remaining binding (Tyrosine-protein kinase ABL1, phosphorylated (ABL1, Homo sapiens, UniProt P00519, F317I); cell-free assay, competition with immobilised ligand).
For Inhibitor of nuclear factor kappa-B kinase subunit epsilon (IKBKE, Homo sapiens, UniProt Q14164); cell-free assay, competition with immobilised ligand: remaining binding read 89.7%.
For Serine/threonine-protein kinase PAK 4 (PAK4, Homo sapiens, UniProt O96013); cell-free assay, competition with immobilised ligand: remaining binding read 90.2%.
The remaining binding was 99.6% (Cyclin-dependent kinase 19 (CDK19, Homo sapiens, UniProt Q9BWU1); competition binding).
For Ribosomal protein S6 kinase alpha-5, C-terminal kinase domain (RPS6KA5, Homo sapiens, UniProt O75582); cell-free assay, competition with immobilised ligand: remaining binding read 98.5%.

Series 2
SMILES: C=CCc1ccc(O)c(-c2cc(CC=C)ccc2O)c1
ANO1 del476-501/E659A: Anoctamin-1 (ANO1, Homo sapiens, UniProt Q5XXA6, del476-501/E659A)
Sequence of UniProt Q5XXA6 (whole entry, unmodified, looked up): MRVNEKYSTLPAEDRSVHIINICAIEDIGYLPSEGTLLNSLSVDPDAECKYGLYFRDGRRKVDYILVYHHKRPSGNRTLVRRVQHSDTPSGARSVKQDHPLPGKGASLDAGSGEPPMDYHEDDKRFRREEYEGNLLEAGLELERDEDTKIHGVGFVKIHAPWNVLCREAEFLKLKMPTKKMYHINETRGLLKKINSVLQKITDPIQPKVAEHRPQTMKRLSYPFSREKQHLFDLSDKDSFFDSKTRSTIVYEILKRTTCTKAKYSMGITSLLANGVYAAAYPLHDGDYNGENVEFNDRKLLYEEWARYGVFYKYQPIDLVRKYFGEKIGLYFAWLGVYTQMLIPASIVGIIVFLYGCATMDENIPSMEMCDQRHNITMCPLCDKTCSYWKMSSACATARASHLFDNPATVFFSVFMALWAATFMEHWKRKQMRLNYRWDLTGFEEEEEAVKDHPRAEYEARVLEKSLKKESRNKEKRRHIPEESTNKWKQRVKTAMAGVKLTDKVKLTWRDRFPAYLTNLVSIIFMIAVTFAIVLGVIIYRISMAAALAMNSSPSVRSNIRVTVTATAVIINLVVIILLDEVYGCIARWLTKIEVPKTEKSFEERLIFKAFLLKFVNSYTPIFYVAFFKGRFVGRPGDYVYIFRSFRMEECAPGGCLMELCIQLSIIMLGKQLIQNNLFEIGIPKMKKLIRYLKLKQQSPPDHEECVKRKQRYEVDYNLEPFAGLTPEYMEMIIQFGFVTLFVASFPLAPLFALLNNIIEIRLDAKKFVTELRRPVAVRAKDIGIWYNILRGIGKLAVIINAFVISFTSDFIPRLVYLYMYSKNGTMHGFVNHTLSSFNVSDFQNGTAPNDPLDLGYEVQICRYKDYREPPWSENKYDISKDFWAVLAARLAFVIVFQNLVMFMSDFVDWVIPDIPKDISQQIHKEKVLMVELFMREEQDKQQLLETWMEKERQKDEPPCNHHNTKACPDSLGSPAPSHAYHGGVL
ANO1 del476-501/R541A: Anoctamin-1 (ANO1, Homo sapiens, UniProt Q5XXA6, del476-501/R541A)
ANO1: Anoctamin-1 (ANO1, Homo sapiens, UniProt Q5XXA6)
For Anoctamin-1 (ANO1, Homo sapiens, UniProt Q5XXA6, del476-501); chloride current, whole-cell voltage clamp; 3 µM, membrane voltage 0 mV, together with: 4 µM Ca2+ (saturating): normalized current read -0.0016.
It gave 0.0033 for normalized current (ANO1 del476-501/E659A; chloride current, inside-out patch clamp; 30 µM, membrane voltage 0 mV).
ANO1 del476-501/R541A; chloride current, inside-out patch clamp; 30 µM, membrane voltage -60 mV — normalized current: -0.325.
The normalized current was -0.135 (ANO1 del476-501/R541A; chloride current, whole-cell voltage clamp; 3 µM, membrane voltage -20 mV, together with: 4 µM Ca2+ (saturating)).
ANO1; chloride current, inside-out patch clamp; 30 µM, membrane voltage -20 mV — normalized current: -0.214.
For Anoctamin-1 (ANO1, Homo sapiens, UniProt Q5XXA6, del476-501/K629A); chloride current, inhibitor, whole-cell voltage clamp; 100 µM; relative to: untreated: normalized current read 0.63.
It gave -0.251 for normalized current (human TMEM16A K603A/E623A; chloride current, inhibitor, inside-out patch clamp; 30 µM, at -80 mV).
The normalized current was 0.245 (ANO1 del476-501/R541A; chloride current, inside-out patch clamp; 30 µM, membrane voltage 40 mV).
It gave -0.397 for normalized current (ANO1 del476-501/E659A; chloride current, inside-out patch clamp; 30 µM, membrane voltage -40 mV).
For ANO1; chloride current, inhibitor, inside-out patch clamp; 30 µM, wild type at -100 mV: normalized current read -1.14.
The normalized current was 0.134 (Anoctamin-1 (ANO1, Homo sapiens, UniProt Q5XXA6, del476-501/E659A/K629A); chloride current, inside-out patch clamp; 30 µM, membrane voltage 20 mV).
The normalized current was 0.787 (Anoctamin-1 (ANO1, Homo sapiens, UniProt Q5XXA6, del476-501/E649A); ion current, inside-out patch clamp; 30 µM, E623A mutant at 100 mV).

Series 3
Structure (SMILES): CCOc1cc2ncnc(Nc3cccc(Br)c3)c2cc1OCC
Effect on: enzyme activity
Action: inhibitor
Tested at: 0.5 µM
Relative to: control
Cyclin-dependent kinase 1, with cyclin B (CDK1, Homo sapiens, UniProt P06493) — remaining activity: 80.8%.
For Homeodomain-interacting protein kinase 4 (HIPK4, Homo sapiens, UniProt Q8NE63): remaining activity read 89.9%.
For Ephrin type-B receptor 1 (EPHB1, Homo sapiens, UniProt P54762): remaining activity read 73.8%.
The remaining activity was 93.3% (Ribosomal protein S6 kinase alpha-6 (RPS6KA6, Homo sapiens, UniProt Q9UK32)).
Cyclin-dependent kinase 6, with cyclin D3 (CDK6, Homo sapiens, UniProt Q00534) — remaining activity: 104%.
It gave 74.9% for remaining activity (Tyrosine-protein kinase Blk (BLK, Homo sapiens, UniProt P51451)).
It gave 97.8% for remaining activity (Cyclin-dependent kinase 4, with cyclin D3 (CDK4, Homo sapiens, UniProt P11802)).
For Mitogen-activated protein kinase kinase kinase kinase 4 (MAP4K4, Homo sapiens, UniProt O95819): remaining activity read 67%.
It gave 104% for remaining activity (Testis-specific serine/threonine-protein kinase 2 (TSSK2, Homo sapiens, UniProt Q96PF2)).
For Serine/threonine-protein kinase 17A (STK17A, Homo sapiens, UniProt Q9UEE5): remaining activity read 98.9%.
For Tyrosine-protein kinase Srms (SRMS, Homo sapiens, UniProt Q9H3Y6): remaining activity read 85.7%.
Tyrosine-protein kinase ABL1 (ABL1, Homo sapiens, UniProt P00519) — remaining activity: 64.3%.
It gave 87.4% for remaining activity (MAP kinase-activated protein kinase 3 (MAPKAPK3, Homo sapiens, UniProt Q16644)).
The remaining activity was 43% (Ephrin type-B receptor 4 (EPHB4, Homo sapiens, UniProt P54760)).
The remaining activity was 96.8% (3-phosphoinositide-dependent protein kinase 1 (PDPK1, Homo sapiens, UniProt O15530)).
It gave 95.8% for remaining activity (Ribosomal protein S6 kinase alpha-5 (RPS6KA5, Homo sapiens, UniProt O75582)).
It gave 98.4% for remaining activity (Serine/threonine-protein kinase 16 (STK16, Homo sapiens, UniProt O75716)).
The remaining activity was 75.1% (Ephrin type-A receptor 4 (EPHA4, Homo sapiens, UniProt P54764)).
Serine/threonine-protein kinase WNK3 (WNK3, Homo sapiens, UniProt Q9BYP7) — remaining activity: 96.5%.
Calcium/calmodulin-dependent protein kinase type II subunit beta (CAMK2B, Homo sapiens, UniProt Q13554) — remaining activity: 98.8%.
Dual specificity tyrosine-phosphorylation-regulated kinase 3 (DYRK3, Homo sapiens, UniProt O43781) — remaining activity: 98.5%.
Phosphorylase b kinase gamma catalytic chain, skeletal muscle/heart isoform (PHKG1, Homo sapiens, UniProt Q16816) — remaining activity: 84.2%.
The remaining activity was 96.8% (Homeodomain-interacting protein kinase 2 (HIPK2, Homo sapiens, UniProt Q9H2X6)).
Tyrosine-protein kinase receptor UFO (AXL, Homo sapiens, UniProt P30530) — remaining activity: 89.9%.

Series 4
Target: Calcium/calmodulin-dependent protein kinase type II subunit alpha (CAMK2A, Homo sapiens, UniProt Q9UQM7)
Sequence of UniProt Q9UQM7 (whole entry, looked up): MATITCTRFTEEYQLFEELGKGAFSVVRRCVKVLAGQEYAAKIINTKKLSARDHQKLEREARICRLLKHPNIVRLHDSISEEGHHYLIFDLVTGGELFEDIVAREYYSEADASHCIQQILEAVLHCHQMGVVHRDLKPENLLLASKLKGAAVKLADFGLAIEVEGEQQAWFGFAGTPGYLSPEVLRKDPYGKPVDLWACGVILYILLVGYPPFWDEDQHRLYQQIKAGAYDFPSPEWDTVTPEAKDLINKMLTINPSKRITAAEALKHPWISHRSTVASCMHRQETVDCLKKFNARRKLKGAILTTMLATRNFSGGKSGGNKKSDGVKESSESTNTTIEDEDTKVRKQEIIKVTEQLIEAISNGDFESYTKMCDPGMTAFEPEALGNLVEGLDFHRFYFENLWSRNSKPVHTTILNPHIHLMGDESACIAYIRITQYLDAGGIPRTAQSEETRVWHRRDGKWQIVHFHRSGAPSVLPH
Effect on: enzyme activity
Action: inhibitor
Tested at: 10 µM
For `C[C@@H]1O[C@@H](OC[C@H]2O[C@@H](Oc3c(-c4ccc(O)cc4)oc4cc(O)cc(O)c4c3=O)[C@H](O)[C@@H](O)[C@@H]2O)[C@H](O)[C@H](O)[C@H]1O`, the inhibition was -28%.
`CCC(C)(Oc1ccc(C2(c3ccc(OC(C)(CC)C(=O)O)cc3)CCCCC2)cc1)C(=O)O` (stereo not drawn) gave an inhibition of -7%.
The inhibition of `CCCCC/C=C\C/C=C\C/C=C\CCCCC(=O)O` is reported as -2%.
With `CCC(C)(C)C(=O)O[C@H]1C[C@@H](C)C=C2C=C[C@H](C)[C@H](CC[C@@H](O)C[C@@H](O)CC(=O)O)[C@H]21` the inhibition was -6%.
The inhibition of `COc1cc(O)cc(/C=C/c2ccccc2)c1` is reported as -16%.
`CC(=O)c1c(O)cccc1O` gave an inhibition of -12%.
The inhibition of `COc1ccc(-c2coc3c([C@@H]4O[C@H](CO)[C@@H](O)[C@H](O)[C@H]4O)c(O)ccc3c2=O)cc1` is reported as -7%.
For `COc1cc(/C=C/C(=O)CC(=O)CCc2ccc(O)c(OC)c2)ccc1O`, the inhibition was 6%.
`CCCCC1OC(=O)c2ccccc21` (stereo not drawn) has an inhibition of 20%.
The inhibition of `CC1(C)CCCC2(C)OC(=O)C=C12` (racemic) is reported as 26%.
For `CC(C)(C(=O)O)C(=O)O`, the inhibition was -22%.
For `Cc1onc(-c2ccccc2)c1-c1ccc(S(N)(=O)=O)cc1`, the inhibition was -6%.
`COc1ccc2[nH]cc(CC(=O)O)c2c1` has an inhibition of 9%.
With `COc1ccc(/C=C/C(=O)/C=C(O)/C=C/c2ccc(OC)c(OC)c2)cc1OC` the inhibition was 19%.
